Experimental data gathered from unrelated publications.
Lines come from different studies, so protocols differ. Numbers after ± are the reported error.

Compound | test | system | conditions | how to read | measurement | result
CCCCCCCCCCCCCCN(C)C | liver S9 substrate depletion | rainbow trout liver S9 | six-surfactant mixture |  | in vivo intrinsic clearance | 140 mL/h/g liver
CC(C)[C@H](NC(=O)[C@@H]1CCCN1C(=O)[C@H](CCCNC(=N)N)NC(=O)[C@H](CS)NC(=O)[C@H](Cc1c[nH]c2ccccc12)NC(=O)[C@H](CCCNC(=N)N)NC(=O)[C@@H](Cc1ccccc1)NC(=O)[C@H](Cc1c[nH]cn1)NC(=O)[C@H](CCC(=O)O)NC(=O)[C@H](CS)NC(=O)[C@H](CS)NC(=O)[C@H](CCCCN)NC(=O)[C@@H]1CC(=O)N[C@@H](CCCNC(=N)N)C(=O)N[C@@H]([C@@H](C)O)C(=O)N[C@@H](CC(=O)O)C(=O)N[C@H](Cc2ccc(O)cc2)C(=O)N1)C(N)=O [technetium-99m labelled] |  | C57 mouse, female, B16/F1 melanoma, blood | intravenous, 2 h, with: NDP-MSH 10 µg co-injected |  | tissue uptake | 0.5 ± 0.2 %ID/g
CO[C@H]1/C=C/O[C@@]2(C)Oc3c(C)c(O)c4c(O)c(c(/C=N/N5CCN(C)CC5)c(O)c4c3C2=O)NC(=O)/C(C)=C\C=C\[C@H](C)[C@H](O)[C@@H](C)[C@@H](O)[C@@H](C)[C@H](OC(C)=O)[C@@H]1C | mitochondrial swelling | BALB/cByJ female mouse liver mitochondria | 30 min, with: succinate + rotenone | relative to: CaCl2 maximal swelling | EC20 | > 800 µM
CC[C@@H]1C(=O)N(C)c2cnc(Nc3ccc(C(=O)N[C@H]4CC[C@H](N5CCN(CC6CC6)CC5)CC4)cc3OC)nc2N1C(C)C | non-compartmental analysis | human, plasma | intravenous infusion, 350 mg (first infusion) |  | Vss | 4430 L
Cn1c(-c2ccc(C(N)=O)cc2F)nnc1C(C)(C)Oc1c(F)cc(Cl)cc1F |  | young Japanese adults, plasma | oral, 20 mg single dose, day 1, high-dose multiple-dose study |  | Cmax median | 214 ng/mL
CCCC[C@@H]1NC(=O)[C@@H](NC(=O)[C@H](CCC(=O)O)NC(=O)CNC(=O)CN2CCN(CC(=O)O)CCN(CC(=O)O)CCN(CC(=O)O)CC2)CCCCNC(=O)C[C@@H](C(N)=O)NC(=O)[C@H](C(C)C)NC(=O)[C@@H]2CCCN2C(=O)[C@H](CCCNC(=N)N)NC(=O)CNC(=O)[C@H](Cc2c[nH]c3ccccc23)NC(=O)[C@H](CCCNC(=N)N)NC(=O)[C@@H](Cc2ccccc2)NC(=O)[C@H](Cc2c[nH]cn2)NC(=O)[C@H](CCC(=O)O)NC1=O [indium-111 labelled] |  | normal C57 mice, muscle | intravenous, 0.037 MBq, 4 h |  | tissue uptake | 0.03 ± 0.02 %ID/g
CC(=O)Nc1ccc(O)cc1 | cytochrome c release, ELISA | BALB/cByJ female mouse liver mitochondria | 30 min | relative to: alamethicin maximal release | EC20 | > 400 µM
O=C(C1CC1)n1nc(C(F)(F)F)c2cccnc21 | chemical stability | aqueous buffer | pH 7.4 |  | half-life | > 4 h
COc1ccc2[nH]c([S+]([O-])Cc3ncc(C)c(OC)c3C)nc2c1 (stereo not drawn) |  | human, dried blood spots | dose not given, prasugrel alone session |  | AUC(0-6 h) | 81.9 ng·h/mL
Cc1ccc(NC(=O)c2ccc(CN3CCN(C)CC3)cc2)cc1Nc1nccc(-c2cncc(-c3oncc3C)c2)n1 |  | Parkinson's disease patients, plasma | oral, 100 mg once daily, day 1, 7-day dosing, mean |  | AUC(0-tau) | 50600 ng·h/mL
CCCC[C@H](NC(=O)CN1CCC(NC(=O)CN2CCN(CC(=O)O)CCN(CC(=O)O)CCN(CC(=O)O)CC2)CC1)C(=O)N[C@H]1CC(=O)NCCCC[C@@H](C(N)=O)N(C)C(=O)[C@H](Cc2c[nH]c3ccccc23)N(C)C(=O)[C@H](CCCNC(=N)N)N(C)C(=O)[C@@H](Cc2ccccc2)NC(=O)[C@H](Cc2c[nH]cn2)N(C)C1=O [gallium-68 labelled] |  | C57BL/6J mice with B16-F10 melanoma, tumour over liver | intravenous, 1 h, with: MC1R inhibitor BMS 470539 0.5 mg co-injected |  | tumour to tissue ratio | 1.79 ± 0.88
Cc1cc(C(=O)NC(C)(C)COc2cccc3c2C(N)=NS(=O)(=O)N3)cc(C)n1 |  | female Sprague-Dawley rat, plasma | oral, 100 mg/kg, single dose |  | bioavailability | 0.15%
CO[C@H]1C[C@@H]2CC[C@@H](C)[C@@](O)(O2)C(=O)C(=O)N2CCCC[C@H]2C(=O)O[C@H]([C@H](C)C[C@@H]2CC[C@@H](O)[C@H](OC)C2)CC(=O)[C@H](C)/C=C(\C)[C@@H](O)[C@@H](OC)C(=O)[C@H](C)C[C@H](C)/C=C/C=C/C=C/1C |  | human, whole blood | oral, 60 mg, mean |  | AUC | 3140 ng·h/mL
C#C[C@]1(CO)O[C@@H](n2cnc3c(N)nc(F)nc32)C[C@@H]1O |  | human, plasma | oral, 10 mg once weekly, week 1 |  | AUC(0-168 h) | 0.713 µM·h
O=C(O)CCCC[C@@H]1SC[C@@H]2NC(=O)N[C@@H]21 | mitochondrial swelling | BALB/cByJ female mouse liver mitochondria | 30 min, with: succinate + rotenone | relative to: CaCl2 maximal swelling | EC20 | > 400 µM

For quick reference, copied from above:
Compound | test | system | conditions | how to read | measurement | result
Cc1ccc(NC(=O)c2ccc(CN3CCN(C)CC3)cc2)cc1Nc1nccc(-c2cncc(-c3oncc3C)c2)n1 |  | Parkinson's disease patients, plasma | oral, 100 mg once daily, day 1, 7-day dosing, mean |  | AUC(0-tau) | 50600 ng·h/mL
